Experimental data collected from several papers.
“And” joins repeats or separate records; there may be more than shown. ± gives the spread as reported.
Chain of UniProt Q9NPD5 (whole entry, looked up): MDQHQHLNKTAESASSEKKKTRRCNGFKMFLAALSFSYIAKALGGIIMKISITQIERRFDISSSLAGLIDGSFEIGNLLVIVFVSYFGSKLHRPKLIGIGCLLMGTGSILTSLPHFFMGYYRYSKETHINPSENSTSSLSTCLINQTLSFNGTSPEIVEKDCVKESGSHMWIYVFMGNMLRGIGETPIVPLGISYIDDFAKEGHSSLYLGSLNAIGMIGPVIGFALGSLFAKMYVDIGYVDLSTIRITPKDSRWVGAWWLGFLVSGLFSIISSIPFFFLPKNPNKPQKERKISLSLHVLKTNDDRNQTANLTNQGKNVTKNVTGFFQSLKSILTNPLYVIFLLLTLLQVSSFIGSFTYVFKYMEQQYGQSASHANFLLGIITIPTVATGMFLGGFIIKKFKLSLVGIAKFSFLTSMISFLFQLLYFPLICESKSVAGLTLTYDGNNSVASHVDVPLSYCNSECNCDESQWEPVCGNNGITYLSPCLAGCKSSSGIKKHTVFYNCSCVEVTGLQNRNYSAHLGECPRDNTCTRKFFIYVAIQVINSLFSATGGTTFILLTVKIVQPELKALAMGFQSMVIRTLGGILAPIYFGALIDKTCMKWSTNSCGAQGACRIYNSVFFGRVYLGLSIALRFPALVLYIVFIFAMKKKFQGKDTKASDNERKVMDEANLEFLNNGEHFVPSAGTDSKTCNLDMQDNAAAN

| SMILES | tested on | assay | test system | setting | how to read | endpoint | value |
| --- | --- | --- | --- | --- | --- | --- | --- |
| CC[C@H](C)[C@H](NC(=O)[C@H](CCCCN)NC(=O)CNC(=O)[C@H](CC(C)C)NC(=O)[C@H](Cc1ccccc1)NC(=O)[C@H](CCCCN)NC(=O)[C@H](CO)NC(=O)[C@H](Cc1ccccc1)NC(=O)[C@H](Cc1c[nH]c2ccccc12)NC(=O)[C@H](CCC(N)=O)NC(=O)[C@@H](NC(=O)[C@H](Cc1ccccc1)NC(=O)CCCCCNC(=O)CN1CCN(CC(=O)O)CCN(CC(=O)O)CCN(CC(=O)O)CC1)C(C)C)C(=O)N[C@@H](CCC(=O)O)C(=O)N1CCC[C@H]1C(=O)N[C@@H](CC(=O)O)C(=O)N[C@H](C(=O)N[C@@H](CO)C(=O)N[C@@H](CCC(N)=O)C(=O)N[C@H](C(=O)N[C@@H](CCC(N)=O)C(=O)N[C@@H](CC(=O)O)C(=O)N1CCC[C@H]1C(=O)N[C@@H](CC(N)=O)C(=O)N[C@@H](CC(=O)O)C(=O)N[C@@H](CCC(N)=O)C(=O)N[C@@H](Cc1ccc(O)cc1)C(=O)N[C@@H](CCC(=O)O)C(=O)N1CCC[C@H]1C(=O)N[C@@H](Cc1ccccc1)C(=O)O)C(C)C)C(C)C [copper-64 labelled] |  |  | C57BL/6 mice, thymus | with: LPS 0.1 mg/kg intratracheal |  | tissue uptake | 1.22 ± 0.2 %ID/g |
| C[C@H](O)[C@@H](NC(=O)[C@H]1CCCN1C(=O)[C@@H](CCCCN)NC(=O)[C@@H](CO)NC(=O)[C@@H](Cc1ccc(O)cc1)NC(=O)[C@@H](CC(N)=O)NC(=O)CCOCCOCCOCCNC(=O)CN1CCN(CC(=O)O)CCN(CC(=O)O)CCN(CC(=O)O)CC1)C(=O)N[C@H](CC(=O)O)C(=O)N[C@H](CCCNC(=N)N)C(=O)N[C@H](CCC(N)=O)C(=O)N[C@H](Cc1ccc(O)cc1)C(=O)N[C@H](Cc1c[nH]cn1)C(=O)N[C@H](Cc1ccccc1)C(N)=O [copper-64 labelled] |  |  | C57BL/6J mice, muscle | intravenous, 1.85 MBq, 0.3333 h, radiolabelled |  | tissue uptake | 0.9 ± 0.3 %ID/g |
| Cc1ccc(OC[C@H]2CCCN2C)cc1C(=O)N[C@H](C)c1cc(-c2cnn(C)c2)nc2ccccc12 | Vero E6 |  |  | 250 µM |  | viability | 0.632% and 0.158% |
| CN1Cc2cc(Cl)ccc2-n2c(nnc2C2CCN(c3cccc([18F])n3)CC2)C1 |  |  | C57BL/6 mouse male, muscle | intravenous, dose not given, 5 min, with: blocking agent 10 mg/kg |  | tissue uptake | 3.75 ± 1.05 %ID/g |
| CC[C@H](C)[C@H](NC(=O)[C@H](CCCNC(=N)N)NC(=O)[C@H](CCCCN)NC(=O)[C@H](Cc1ccc(O)cc1)NC(=O)[C@H](CC(=O)O)NC(=O)[C@H](C)NC(=O)CNC(=O)CCOCCOCCOCCNC(=O)CN1CCN(CC(=O)O)CCN(CC(=O)O)CCN(CC(=O)O)CC1)C(=O)N[C@H](C(=O)N[C@H](C(=O)N[C@@H](CCCCN)C(=O)N[C@H](C(=O)N[C@@H](CC(N)=O)C(N)=O)C(C)C)C(C)C)[C@@H](C)O [copper-64 labelled] |  | ex vivo gamma counting | male C57BL/6J mouse, B16-F10 tumour, B16-F10 tumour | intravenous, 1.85 MBq, 20 min |  | tissue uptake | 2.6 ± 0.225 %ID/g |
| O=C1NC2(CC2)COc2ncc(F)cc2[C@H]2COCCN2c2ccn3ncc1c3n2 |  |  | Sprague-Dawley rat, male, serum | oral, 5 mg/kg/day, end of treatment, 4-week subacute toxicity |  | serum hepatic lipase activity | 3.3 ± 1.2 U/L |
| CCCC[C@H]1C(=O)N(C)[C@@H](CCCC)C(=O)N[C@@H](CCCNC(=O)CN2CCN(CC(=O)O)CCN(CC(=O)O)CCN(CC(=O)O)CC2)C(=O)N[C@H](C(=O)NCC(N)=O)CSCC(=O)N[C@@H](Cc2ccc(O)cc2)C(=O)N(C)[C@@H](C)C(=O)N[C@@H](CC(N)=O)C(=O)N2CCC[C@H]2C(=O)N[C@@H](Cc2c[nH]cn2)C(=O)N[C@@H](CC(C)C)C(=O)N(C)CC(=O)N[C@@H](Cc2c[nH]c3ccccc23)C(=O)N[C@@H](CO)C(=O)N[C@@H](Cc2c[nH]c3ccccc23)C(=O)N1C [gallium-68 labelled] |  |  | NOD/SCID mice with CHO-hPD-L1 xenograft, blood | 60 min post injection |  | tissue uptake | 12.3 ± 1.03 %ID/g |
| CC[C@H](C)[C@H](NC(=O)[C@H](CCCNC(=N)N)NC(=O)[C@H](CCCCN)NC(=O)[C@H](Cc1ccc(O)cc1)NC(=O)[C@H](CC(=O)O)NC(=O)[C@H](C)NC(=O)CNC(=O)CCOCCOCCOCCNC(=O)CN1CCN(CC(=O)O)CCN(CC(=O)O)CCN(CC(=O)O)CC1)C(=O)N[C@H](C(=O)N[C@@H](CC(C)C)C(=O)N[C@@H](CCCCN)C(=O)N[C@H](C(=O)N[C@@H](CC(N)=O)C(N)=O)C(C)C)[C@@H](C)O [copper-64 labelled] |  | ex vivo gamma counting | male C57BL/6J mouse, B16-F10 tumour, B16-F10 tumour | intravenous, 1.85 MBq, 100 min |  | tissue uptake | 1.89 ± 0.229 %ID/g |
| COc1ccccc1-c1n[nH]c2nc(NC3CCN(C(=O)Cc4ccc(F)cc4F)CC3)ncc12 |  | bead binding, competition bead pull-down, measured: LINJ.36.0780 | Leishmania donovani axenic amastigote extract | 10 µM | baseline: vehicle | relative abundance | 0.61 |
| CSCC[C@H](NC(=O)CNC(=O)[C@H](CCCCN)NC(=O)[C@H](CC(C)C)NC(=O)[C@@H]1CCCN1C(=O)[C@H](CO)NC(=O)[C@H](Cc1c[nH]cn1)NC(=O)[C@H](Cc1c[nH]c2ccccc12)NC(=O)[C@H](CCCNC(=N)N)NC(=O)[C@H](CC(C)C)NC(=O)[C@H](CCCNC(=N)N)NC(=O)[C@H](Cc1c[nH]c2ccccc12)NC(=O)[C@H](CS)NC(=O)CCCCCNC(=O)CN1CCN(CC(=O)O)CCN(CC(=O)O)CCN(CC(=O)O)CC1)C(=O)O [copper-64 labelled] |  | ex vivo biodistribution | C57BL/6J mice bearing B16-F10 tumours, liver | intravenous, 1.85 MBq, 18 h |  | tissue uptake | 11.1 %ID/g |
| CC(C)C[C@@H](NC(=O)[C@@H](CCCNC(=N)N)NC(=O)[C@@H](Cc1c[nH]cn1)NC(=O)[C@@H](Cc1c[nH]c2ccccc12)NC(=O)[C@@H](Cc1c[nH]cn1)NC(=O)[C@@H](Cc1ccccc1)NC(=O)[C@H](NC(=O)[C@@H](Cc1ccc(O)cc1)NC(=O)CNC(=O)CNC(=O)CCOCCOCCOCCNC(=O)CN1CCN(CC(=O)O)CCN(CC(=O)O)CC1)[C@H](C)O)C(=O)N[C@H](CC(N)=O)C(=O)N1CCC[C@@H]1C(=O)O [gallium-68 labelled] |  |  | C57BL/6 mice, male, intestines | intravenous, 1.85 MBq, 60 min, with: GP12 blocking |  | tissue uptake | 1.28 ± 0.41 %ID/g |
| CC(=O)NCCCC[C@@H]1NC(=O)[C@H](Cc2c[nH]c3c(C)cccc23)NC(=O)[C@H]([C@@H](C)O)NC(=O)[C@H](CC(N)=O)NC(=O)[C@@H](NC(C)=O)C(C)(C)SSC(C)(C)[C@@H](C(=O)N[C@@H](Cc2ccc(OCCN)cc2)C(=O)N[C@@H](Cc2ccc3ccccc3c2)C(=O)NC2(C(=O)N[C@@H](CCC(=O)O)C(=O)N[C@@H](CC(N)=O)C(=O)N[C@@H](Cc3cccnc3)C(=O)N(C)CC(N)=O)CCOCC2)NC1=O | Solute carrier organic anion transporter family member 1B3 (SLCO1B3, Homo sapiens, UniProt Q9NPD5) | substrate | HEK293 expressing SLCO1B3 | 5 µM, 30 min |  | uptake rate | 0.0746 ± 0.0087 pmol/mg/min |
